Published values of several laboratories.
Numbered parts are unrelated; each lists some results of a single study.

Sample 1
Target: Histone acetyltransferase KAT6A, winged helix 2, GST fusion (KAT6A, Homo sapiens, UniProt Q92794, residues 85-181)
Technique: protein binding microarray
Form: double-stranded DNA, one strand shown
Matrix: in vitro
Tested at: not given
Notes: 8-mer, flanks averaged, mean of 2 arrays, mostly near background
Baseline: not given
Reading: higher = stronger binding
Construct (chain): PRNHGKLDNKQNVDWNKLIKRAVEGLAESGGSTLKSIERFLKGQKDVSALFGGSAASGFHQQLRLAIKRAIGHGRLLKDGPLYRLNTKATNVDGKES
Strand | E-score
ATGAGCCG | -0.0932
CCTAAGCC | -0.0373
GGTGCGTA | 0.0533
CAACTCAA | -0.0858
AATAATCA | -0.0225
CAGCCAAC | -0.0419

Sample 2
Target: RING finger protein unkempt homolog, zinc fingers 1-6, GST-SBP tag (UNK, Homo sapiens, UniProt Q9C0B0, residues 30-357)
Sequence of UniProt Q9C0B0 (30-357, looked up): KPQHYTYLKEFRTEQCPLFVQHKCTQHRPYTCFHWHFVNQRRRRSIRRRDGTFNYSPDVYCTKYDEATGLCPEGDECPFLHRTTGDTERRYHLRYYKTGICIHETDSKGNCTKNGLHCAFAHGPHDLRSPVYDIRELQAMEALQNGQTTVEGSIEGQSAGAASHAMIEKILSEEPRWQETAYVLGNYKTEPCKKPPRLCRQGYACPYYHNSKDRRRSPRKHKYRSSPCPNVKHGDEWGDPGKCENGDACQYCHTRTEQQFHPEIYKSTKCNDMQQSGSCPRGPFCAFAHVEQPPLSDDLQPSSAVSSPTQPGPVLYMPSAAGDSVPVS
Technique: RNA Bind-n-Seq
Form: RNA
Matrix: in vitro
Tested at: not given
Notes: RNA with constant flanks, ends assumed
Baseline: input RNA pool
Reading: higher = stronger binding
Strand | bound/input enrichment
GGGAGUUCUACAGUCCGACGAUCCUCAGUGAUCAUACACGGAACUCUGCUGAAGGUACAGAAUAUUUCAAAAUGCUUGCCGAUGUUUUUGCUCCAGAAUUUCGAAGGCCAAAGAAUAUACAUCUCCGAAAUUUCUAUAUCAUUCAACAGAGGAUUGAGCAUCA | 0.143 ratio
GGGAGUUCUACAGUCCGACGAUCCUUCGGAAUGCACUACAACAGGAAAAUCAUAUUAUAGAUGGAGUAAAGGUCCAGGUUCACACCCGAAGGCCAAAACUUCCGCAAACAUCUGAUGAUGAAAAGAAAGAUUUUUGAGACUGCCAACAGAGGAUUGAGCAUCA | 0.179 ratio
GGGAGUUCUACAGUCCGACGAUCGCAUAAAAAGCACAAUUGCUAGGACUUCAGUUUUUACUUCAGACUAAAGCUACCCAAGGACUCCGCAGAUAUGGGGGUUACAUCAGUGCUGGUCAUUGUAGCCUGAGUAUACAAUCAAGCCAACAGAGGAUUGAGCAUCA | 0.142 ratio
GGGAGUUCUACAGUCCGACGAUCGCUGUGACCCAGAAUAAAACUAAUAUUUCAACAGCAAGUGCCACAGUUUCUGCUGCCACCCGUACUGAAAGCAUUUCUACUAGGAAAGUAUUGCCAAUGUCCAUUGCUAGACAUAAUAUACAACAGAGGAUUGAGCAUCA | 7.51 ratio
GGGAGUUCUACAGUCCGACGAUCAAGUCUUGCUAGAAUUUUUUCUAAUCUUUAGUAGAUUUGAUUAAAUAAUGAUUCACAGAAUUCCGUAACAGAAUCAAACUAAGCCAUGUAUGAGGGUAAUCGAGAUGAGGAUAUUAACUCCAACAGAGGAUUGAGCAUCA | 0.513 ratio
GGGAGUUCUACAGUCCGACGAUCGCUCUGCCCAGUAUCCCUCACUUACCAAGAGGAGAAUGGAGGGAUAAUGGACUCACCCCCGCCCCGGGCUUCGACAUUGCAUGCUGGGAUCCAGCUCCUACCCUUCCUGCACUCCCUUCCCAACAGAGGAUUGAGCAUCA | 0.202 ratio
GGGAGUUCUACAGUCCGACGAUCUUUUCCUGGAUUAUUGUUCCUUUAUAUAUAAAGGUUUGAUCAUCCAGUGCCUUAAUUGGCUUCCGCCGUGUAGGUCUUACCAUUGUCACAGUCAAUUGAUUUGACUUCAGAGCGUAAUGGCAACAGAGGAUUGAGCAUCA | 0.163 ratio
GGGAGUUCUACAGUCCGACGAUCUAUUUACAACAGCUCACCGGAGCGAGAACAGUUCCUCGGGUCUUCAUAGGUAAAGACUGCACCGGCGGAUGCAGUGAUCUAAUCUCCAUGCAACAGACUGGGGAGCUGAUGACUCGGCUGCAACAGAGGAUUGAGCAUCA | 0.164 ratio
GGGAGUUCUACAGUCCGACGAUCCCCAAGCACUGUAGAGGAAGCUGUGCUCGCCUUAGAGCAUUUUUUUUCUUGCGUUUUGGUUUCCGGGGUGGGUGGGUUGUGGCACACACCUCUGAGGCCAGAGCCAUCGGGUUCACCCUCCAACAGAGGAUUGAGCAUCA | 0.455 ratio
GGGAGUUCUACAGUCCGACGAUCUCCGAUGAACAAGAAGAUGAGGAUGCUGUAGUCAACAGGAUAUCGUUGUUUCUGAGCACCUUCACUCCCGCCGUGUCAGCUGGCGCGGUUUUGCUUUUACCCUUCUCAAUCAUCAGCAAUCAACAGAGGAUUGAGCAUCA | 0.13 ratio

Sample 3
Target: Ras GTPase-activating protein-binding protein 1, RRM domain (G3BP1, Homo sapiens, UniProt Q13283)
Sequence of UniProt Q13283 (whole entry, looked up): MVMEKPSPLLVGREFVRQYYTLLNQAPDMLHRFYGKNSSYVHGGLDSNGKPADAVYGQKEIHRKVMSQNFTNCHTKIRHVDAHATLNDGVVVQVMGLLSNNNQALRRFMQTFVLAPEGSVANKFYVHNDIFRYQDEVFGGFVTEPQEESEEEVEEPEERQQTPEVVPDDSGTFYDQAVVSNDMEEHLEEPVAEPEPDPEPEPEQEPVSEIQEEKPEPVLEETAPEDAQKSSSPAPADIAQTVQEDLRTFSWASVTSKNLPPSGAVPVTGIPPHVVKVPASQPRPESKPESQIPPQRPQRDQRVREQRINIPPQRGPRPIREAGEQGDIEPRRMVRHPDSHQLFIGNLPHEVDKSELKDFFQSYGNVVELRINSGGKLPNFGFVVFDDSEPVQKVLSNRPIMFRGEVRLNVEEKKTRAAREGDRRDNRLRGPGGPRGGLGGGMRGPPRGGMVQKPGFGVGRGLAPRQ
Technique: RNA Bind-n-Seq
Form: RNA
Matrix: in vitro
Tested at: 1 µM
Notes: whole 134-nt RNA, ends assumed
With: 150 mM KCl
Baseline: input library
Reading: higher = stronger binding
Strand | log2 enrichment
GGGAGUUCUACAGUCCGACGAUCGUCCUGUGCUACACAUCGUAUGUACCGAAUCGGGGUUUUUGGGUUUUUGGGUUUUUGGGAAAGUAUUAUGUUACGCCGUUCGGAUCUGCAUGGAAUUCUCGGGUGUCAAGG | 0.172
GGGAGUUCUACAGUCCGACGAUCAGUCCUGUGCUACACAUCGUAUGUACCGAAUCGGGAAAAAGGGAGGGAAAAAAAGGGAAAGUAUUAUGUUACGCCGUUCGGAUCUGCACUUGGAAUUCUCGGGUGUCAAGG | 0.26
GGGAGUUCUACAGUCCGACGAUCGUCCUGUGCUACACAUCGUAUGUACCGAAUCGGGAAAAAAAGGGAAAAAAAGGGAGGGAAAGUAUUAUGUUACGCCGUUCGGAUCUGCACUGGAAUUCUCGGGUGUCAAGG | 0.581
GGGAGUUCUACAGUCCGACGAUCCACAGACAACACGCACCCACACAGAUACAGAGGGAAGGGGUUGGGAUGGGGACAGGGUGCACAGCAGGGCGGGGUAGGACCCCAGCCCCUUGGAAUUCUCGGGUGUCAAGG | -0.00682
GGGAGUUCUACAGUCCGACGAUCUAUCUUAUCUACACAUGGGGGACUGAAGAGUUCGAGAGAUCCAAGAGGAAGAAUCCAGCUGCCUAUGAAAAUGACAAAUGAGCAACGCAUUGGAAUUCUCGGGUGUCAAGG | -0.00314
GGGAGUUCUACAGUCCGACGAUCUUUGCUGAUUUCUGGCUGGCGGAUCAGCUGAACAGCCUGUCAGUGAUACUGAUGGACCUGGAAUAUAUGAUCUGCUUCUACAGUUUGGAGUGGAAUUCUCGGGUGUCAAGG | -0.431
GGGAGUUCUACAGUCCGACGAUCACCAUGCAGGUGGGCAUCGUUGGGAAGUGGGGCAAGGGGGGGAUAGGGAGGGGGGUAACACUUUGGGAACAGGUGGUCCCAGGUCGUUUCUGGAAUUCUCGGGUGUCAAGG | -0.451
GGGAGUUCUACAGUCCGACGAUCUCAAGUCCUGUGCUACACAUCGUAUGUACCGAAUCGGUGGAAAAAAAGGAAAGGAAAGUAUUAUGUUACGCCGUUCGGAUCUGCACUUCCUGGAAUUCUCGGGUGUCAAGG | -0.0903
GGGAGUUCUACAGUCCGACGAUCACCAUGCAGGUGGGCAUCUUUGGGAAGUGGGGCAAGGGGGGGAUAGGGAGGGGGGUAACACUUUGGGAACAGGUGGUCCCAGGUAAAUUCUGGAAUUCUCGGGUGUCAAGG | -0.569
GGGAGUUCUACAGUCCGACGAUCCCUGUGCUACACAUCGUAUGUACCGAAUCGGGGUUUUUGGGGUUUGGGGAAAAAAAGGGGAAAGUAUUAUGUUACGCCGUUCGGAUCUGCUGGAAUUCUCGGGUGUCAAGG | 0.605

Mixed results
Substance | target | test | test system | conditions | scale | measurement | value
PhoQ, residues 284 288 289 292 302 303 TLMATV | PhoP, residues 12 14 15 18 19 LHTVM (Escherichia coli, UniProt P23836) | Sort-seq, item: YFP reporter | E. coli | PhoQ-PhoP variant library, with: 10 µM Mg2+ | baseline: high Mg2+ state, higher = stronger signaling | fold induction | 1.75

A few entries again (sample 2):
Strand | bound/input enrichment
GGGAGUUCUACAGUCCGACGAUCCUCAGUGAUCAUACACGGAACUCUGCUGAAGGUACAGAAUAUUUCAAAAUGCUUGCCGAUGUUUUUGCUCCAGAAUUUCGAAGGCCAAAGAAUAUACAUCUCCGAAAUUUCUAUAUCAUUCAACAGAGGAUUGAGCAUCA | 0.143 ratio
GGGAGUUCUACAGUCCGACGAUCCCCAAGCACUGUAGAGGAAGCUGUGCUCGCCUUAGAGCAUUUUUUUUCUUGCGUUUUGGUUUCCGGGGUGGGUGGGUUGUGGCACACACCUCUGAGGCCAGAGCCAUCGGGUUCACCCUCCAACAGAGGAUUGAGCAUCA | 0.455 ratio
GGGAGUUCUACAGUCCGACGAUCUCCGAUGAACAAGAAGAUGAGGAUGCUGUAGUCAACAGGAUAUCGUUGUUUCUGAGCACCUUCACUCCCGCCGUGUCAGCUGGCGCGGUUUUGCUUUUACCCUUCUCAAUCAUCAGCAAUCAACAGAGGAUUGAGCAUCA | 0.13 ratio
